Experimental data collected from several papers.
Lines come from different studies, so protocols differ. “And” joins repeats or separate records; there may be more than shown. ± gives the spread as reported.

| Compound | target or system | assay | system | setting | scale | endpoint | value |
| --- | --- | --- | --- | --- | --- | --- | --- |
| Cn1cc(-n2cnc3c(NCc4nc5cc(Cl)c(Cl)cc5[nH]4)nc(N4CCOCC4)nc32)cn1 | MDA-MB-231 | cell viability, CellCounting-Lite | – | 24.69 nM, 37 °C | higher = more viable cells | luminescence signal | 291000 a.u. and 247000 a.u. and 282000 a.u. |
| CCn1cc(-c2cc(Cn3ccoc3=N)cc3c2CCN([C@@H](C)c2cc(OC)ccn2)C3=O)c(C(F)(F)F)n1 | HMC18 | cell growth | – | 120 h | – | EC50 | 10.4 µM |
| O=C(NCC1CCOCC1)c1ccc([C@H]2[C@@H](F)[C@@H](F)C[C@@H](F)[C@H]2F)cc1 | – | liver microsome stability | human liver microsomes | 1 µM, without NADPH | – | hepatic clearance | 3.9 mL/min/kg |
| O=c1ccn([C@@H]2O[C@H](CO)[C@@H](O)[C@H]2O)c(=O)[nH]1 | activated human T cells | – | – | concentration not given | baseline: DMSO | T cell proliferation | 110% and 98.8% and 101% and 97.4% |
| CCCCN1C[C@H](O)[C@@H](O)[C@@H](O)[C@H]1CO | sample D patient fibroblasts | Gb3 level lowering, LC-MS/MS, refers to: Gb3 d18:1/18:0 | – | 216 h | – | IC50 | 9.9 µM |
| O=C1[C@H]2CCCN2[C@H](c2cccc3c2OCO3)N1c1ccc(Cl)c(Cl)c1 (racemic) | PC-12 | – | – | 50 µM | – | mutant huntingtin aggregates per cell | no effect |
| [Cl-].[Cl-].[Os+2].c1cnc2c(c1)ccc1cccnc12.c1cnc2c(c1)ccc1cccnc12.c1cnc2c(c1)ccc1cccnc12 | SK-MEL-28 | cell viability, resazurin | – | dark, 1% O2 hypoxia | baseline: dark EC50 over visible EC50 | phototherapeutic index | 1 |
| O=C(/C=C/C=C/C=C/C1CCCCC1)NC1=C[C@@](O)(/C=C/C=C/C=C/C(=O)NC2=C(O)CCC2=O)[C@@H]2O[C@@H]2C1=O | YAPC | cell growth, CellTiter-Glo | – | 78 h | – | GI50 | 19.9 µM |
| Cn1cc(-c2ccc(-c3cncc(Cl)c3N3CCC4(CCNC4=O)CC3)cc2)cn1 | COLO 205 | gene expression, microarray, refers to: CORO1A mRNA | – | concentration not given, 2 h | baseline: untreated cells | log2 fold change | -2.57 |
| CCn1cc(-c2cc(Cn3ccnc3)cc3c2CCN([C@H](c2cc(OC)ccn2)C2CC2)C3=O)c(C(F)(F)F)n1 | PLC-PRF-5 | cell growth, inhibitor | – | 120 h | – | EC50 | > 30 µM |
| CN(Cc1cccnc1)C(=O)c1ccc([C@H]2[C@@H](F)[C@@H](F)C[C@@H](F)[C@H]2F)cc1 | – | liver microsome stability | dog liver microsomes | 1 µM | – | hepatic clearance | 28 mL/min/kg |
| Cn1cc(-c2[nH]c3cc(NC(=O)[C@H](N)C4CCCCC4)cc4c3c2C=NNC4=O)cn1 | SNU-1040 | – | – | 0.33 µM, 72 h, 100% DMSO | baseline: vehicle | cell growth | 97.5% |
| CCCCCCCCCCCCCCCCCCOc1cccc(CC(=O)OCCC[N+](C)(C)C)c1 | NSCLC panel (nine cell lines) | – | – | 10 µM | – | mean growth inhibition | 14.3% |
| COc1c(C)c(OC(=O)c2ccc(C)cc2)c(C)c(O)c1C(=O)/C=C/c1ccccc1 | KKU-M213 | SRB | – | – | baseline: normal over KKU-M213 IC50 | selectivity index | 0.88 |
| COc1ccc(NC(=S)N/N=C/c2cccc3cc4ccccc4nc23)cc1 | HeLa | annexin V/PI flow cytometry | – | IC12.5, 48 h | – | necrotic cells | 3.23 ± 0.18% |
| Cn1cc(Nc2nccc(-c3ccc4c(c3)CN(C3COC3)CC[C@H]4NC(=O)c3cn(C(C)(C)C)nn3)n2)cn1 | mouse splenic B cells | refers to: IL-2 signalling | – | 30 mg/kg, IgD-activated in vivo | baseline: vehicle, direction not given | pathway activation z-score | 1.67 |
| CC/C(=N\NC(=O)NCc1cccc(O)c1)c1ccc(O)c(C)c1O | SK-OV-3 | Western blot | – | 10 µM, 3 h, 2D culture, unit not given | baseline: DMSO | LATS band intensity | 1.17 ± 0.98 |
| C=CC(=O)N1[C@@H](c2ccc3c(c2)OCO3)c2[nH]c3ccccc3c2C[C@H]1C(=O)NC | rat DRG neurons | – | – | 3.333 µM, 48 h, together with: vincristine 40 nM | – | mean neuron degeneration | 51.5% |
| O=C(Nc1nc2cccc(-c3ccc(CN4CCS(=O)(=O)CC4)cc3)n2n1)C1CC1 | – | refers to: vomiting | rheumatoid arthritis patients | oral, 200 mg once daily, 4 weeks, any relatedness | – | treatment-emergent adverse events | 8.3% |
| CC(C)NCC(O)c1ccc(O)c(O)c1 (stereo not shown) | mouse ventricular cardiomyocytes | – | – | dose not given, 0.247 s | – | sarcomere length | 1.8 µm |
| Cc1cccc(-c2[nH]c(CNc3ccccc3F)nc2-c2ccc3ncnn3c2)n1 | MM1.S pomalidomide-resistant | XTT | – | 0.25 µM | – | viability | 101% and 97% and 96% |
| O=c1[nH]nc(OCCCc2ccc(Cl)cc2)c(NCc2cccnc2)c1Br | HEK-293T | RNA-seq GSEA, refers to: HALLMARK_UNFOLDED_PROTEIN_RESPONSE | – | concentration not given | direction not given | normalized enrichment score | 2.6 |

Excerpt of the above:
| Compound | target or system | assay | system | setting | scale | endpoint | value |
| --- | --- | --- | --- | --- | --- | --- | --- |
| CCn1cc(-c2cc(Cn3ccnc3)cc3c2CCN([C@H](c2cc(OC)ccn2)C2CC2)C3=O)c(C(F)(F)F)n1 | PLC-PRF-5 | cell growth, inhibitor | – | 120 h | – | EC50 | > 30 µM |
| CC(C)NCC(O)c1ccc(O)c(O)c1 (stereo not shown) | mouse ventricular cardiomyocytes | – | – | dose not given, 0.247 s | – | sarcomere length | 1.8 µm |
| Cn1cc(Nc2nccc(-c3ccc4c(c3)CN(C3COC3)CC[C@H]4NC(=O)c3cn(C(C)(C)C)nn3)n2)cn1 | mouse splenic B cells | refers to: IL-2 signalling | – | 30 mg/kg, IgD-activated in vivo | baseline: vehicle, direction not given | pathway activation z-score | 1.67 |
